Published values of several laboratories.
Compare with care: the assays were run in different laboratories.
Cell line: SH-SY5Y

SMILES | assay | setting | IC50 [µM]
Cc1c(COc2cc(OCc3cccc(C#N)c3)c(CN3CCCC[C@@H]3C(=O)O)cc2Cl)cccc1-c1cccc(OCCCCCCC(=O)NO)c1 | cell growth or viability, CCK-8 | 48 h | > 20
CCOC(=O)c1cc(C)[nH]n1 | cell growth or viability, MTT | 24 h | 25.9
Cc1c(COc2cc(OCc3cccc(C#N)c3)c(CN3CCCC[C@H]3C(=O)O)cc2Cl)cccc1-c1cccc(OCCCCCC(=O)NO)c1 | cell growth or viability, CCK-8 | 48 h | > 20
CCCCCCCCCC(=O)Oc1c(C)c(OC)c2c(c1C)OC(=O)C(CCCCCCCC)C2(O)C=Cc1ccccc1 (stereo not shown) | cell growth or viability, SRB | 72 h | > 50
CCOC(=O)c1cc(C)n(Cn2cnc3ccccc32)n1 | cell growth, MTT | 24 h | 121
CC(=O)O[C@H]1OC[C@@H]2C=C([C@]3(C)CCCC(C)(C)C3)CC[C@H]12 | cytotoxicity, MTT | 24 h | 7.9
CCCC(=O)Oc1c(C)c(OC)c2c(c1C)OC(=O)[C@@H](CC)[C@]2(O)/C=C/c1ccccc1 (racemic) | cell growth or viability, SRB | 72 h | > 50
OCn1cnc2ccccc21 | cell growth, MTT | 24 h | 17.7
CCCCCCCCCCCC(=O)Oc1c(C)c(OC)c2c(/C=C/c3ccccc3)c(CCCCCCCCCC)c(=O)oc2c1C | cell growth or viability, SRB | 72 h | > 50
Cc1cc(C)n(CO)n1 | cell growth or viability, MTT | 24 h | 62.6
Cc1c(COc2cc(OCc3cccc(C#N)c3)c(CNC(CO)CO)cc2Cl)cccc1-c1cccc(OCCCCCCC(=O)NO)c1 | cell growth or viability, CCK-8 | 48 h | > 20
CCCCCC(=O)Oc1c(C)c(OC)c2c(c1C)OC(=O)[C@@H](CCCC)[C@]2(O)/C=C/c1ccccc1 (relative stereo) | cell growth or viability, SRB | 72 h | > 50
Cc1c(COc2cc(OCc3cccc(C#N)c3)c(CNC(CO)(CO)CO)cc2Cl)cccc1-c1cccc(OCCCCCC(=O)NO)c1 | cell growth or viability, CCK-8 | 48 h | 5.35
CC(=O)OC1OC(OC(C)=O)C2CC(O)(C3(C)CCCC(C)(C)C3)CCC12 (stereo not shown) | cytotoxicity, MTT | 24 h | 6.5
O=S(=O)(c1ccc2c(c1)OCO2)n1cc(CCCCN2CCC(=C(c3ccc(F)c(F)c3)c3ccc(F)c(F)c3)CC2)nn1 | cell growth or viability, ATP luminescence | 48 h | 4.42
COc1c(C)c(OC(=O)c2ccc3ccccc3c2)c(C)c(O)c1C(=O)/C=C/c1ccccc1 | cell growth or viability, SRB | 72 h | > 50

Some of these lines once more:
SMILES | assay | setting | IC50 [µM]
Cc1cc(C)n(CO)n1 | cell growth or viability, MTT | 24 h | 62.6
Cc1c(COc2cc(OCc3cccc(C#N)c3)c(CNC(CO)CO)cc2Cl)cccc1-c1cccc(OCCCCCCC(=O)NO)c1 | cell growth or viability, CCK-8 | 48 h | > 20
CCCCCC(=O)Oc1c(C)c(OC)c2c(c1C)OC(=O)[C@@H](CCCC)[C@]2(O)/C=C/c1ccccc1 (relative stereo) | cell growth or viability, SRB | 72 h | > 50
